Results from different studies.
Protocols differ between the studies behind these lines. In brackets after ≈: the same amount, converted by molar mass.

SMILES	test	test system	setting	measurement	result
O=C(CN1CN(c2ccccc2)C2(CCN(C(=O)c3cnc4[nH]ncc4c3)CC2)C1=O)NCC(F)(F)F		aqueous buffer	pH 6.5	solubility	1.1 µg/mL
CC1COC2=C1C(=O)C(=O)c1c2ccc2c1C(OC(=O)CNC(=O)CN)CCC2(C)C (mixture of isomers)		water	25 °C	thermodynamic solubility	273 µg/mL
CC(C)N1CCCCC1C(=O)NC(Cc1ccc(-c2ccccc2)cc1)B(O)O (stereo not shown)	nephelometry	aqueous buffer	pH 6.8	solubility	67 µM
CC1COC2=C1C(=O)C(=O)c1c2ccc2c1C(OC(=O)CNC(=O)C(N)CCC(=O)O)CCC2(C)C (mixture of isomers)		PBS	pH 4, 25 °C	thermodynamic solubility	2140 µg/mL
CC[C@H](C)[C@H](NC(=O)[C@H](C)NC(=O)CNC(=O)[C@H](Cc1ccccc1)NC(=O)[C@H](CC(N)=O)NC(=O)[C@H](CC(N)=O)NC(=O)[C@H](CO)NC(=O)[C@H](CO)NC(=O)[C@H](Cc1c[nH]cn1)NC(=O)[C@@H](NC(=O)[C@H](CC(C)C)NC(=O)[C@H](Cc1ccccc1)NC(=O)[C@H](CC(N)=O)NC(=O)[C@H](C)NC(=O)[C@H](CC(C)C)NC(=O)[C@H](CCCNC(=N)N)NC(=O)[C@H](CCC(N)=O)NC(=O)[C@@H](NC(=O)[C@H](C)NC(=O)[C@@H]1CSSC[C@H](NC(=O)[C@@H](N)CCCCN)C(=O)N[C@@H](CC(N)=O)C(=O)N[C@@H]([C@@H](C)O)C(=O)N[C@@H](C)C(=O)N[C@@H]([C@@H](C)O)C(=O)N1)[C@@H](C)O[C@H]1O[C@H](CO[C@]2(C(=O)O)C[C@H](O)[C@@H](NC(C)=O)[C@H]([C@H](O)[C@H](O)CO)O2)[C@H](O)[C@H](O)[C@H]1NC(C)=O)C(C)C)C(=O)N[C@@H](CC(C)C)C(=O)N[C@@H](CO)C(=O)N[C@@H](CO)C(=O)N[C@H](C(=O)N[C@@H](CC(N)=O)C(=O)N[C@H](C(=O)NCC(=O)N[C@@H](CO)C(=O)N[C@@H](CC(N)=O)C(=O)N[C@H](C(=O)N[C@@H](Cc1ccc(O)cc1)C(N)=O)[C@@H](C)O)C(C)C)[C@@H](C)O		PBS	1 h, pH 7.4	thermodynamic solubility	706 µg/mL (≈ 161 µM)
Cc1ncsc1-c1ccc(CNC(=O)[C@@H]2C[C@@H](O)CN2C(=O)[C@@H](NC(=O)CCCCCCCCCC(=O)NCCN2CCN(Cc3cccc(-c4ccc(N5CCN(C)CC5)c(NC(=O)c5c[nH]c(=O)cc5C(F)(F)F)c4)c3)CC2)C(C)(C)C)cc1		aqueous buffer	pH 7.4	kinetic solubility	< 1.56 µM
Cc1ccc(CNC(=O)c2ccn3c(-c4ccc(C#N)cc4)cnc3c2)cn1		aqueous buffer	pH 7.4	kinetic solubility	2.26 µM (≈ 0.83 µg/mL)
CC1COC2=C1C(=O)C(=O)c1c2ccc2c1C(OC(=O)CNC(=O)C(N)CO)CCC2(C)C (mixture of isomers)		PBS	pH 7.4, 25 °C	thermodynamic solubility	150 µg/mL
CC(C)(N)CNC(=O)Oc1cccc([C@H]2CCC[C@@]3(C2)OOC2(O3)C3CC4CC(C3)CC2C4)c1 (stereo partly shown)		PBS	pH 7.4	kinetic solubility	103 µM (≈ 48.5 µg/mL)
CC[C@H](C)[C@H](NC(=O)[C@H](C)NC(=O)CNC(=O)[C@H](Cc1ccccc1)NC(=O)[C@H](CC(N)=O)NC(=O)[C@H](CC(N)=O)NC(=O)[C@H](CO)NC(=O)[C@H](CO)NC(=O)[C@H](Cc1c[nH]cn1)NC(=O)[C@@H](NC(=O)[C@H](CC(C)C)NC(=O)[C@H](Cc1ccccc1)NC(=O)[C@H](CC(N)=O)NC(=O)[C@H](C)NC(=O)[C@H](CC(C)C)NC(=O)[C@H](CCCNC(=N)N)NC(=O)[C@H](CCC(N)=O)NC(=O)[C@@H](NC(=O)[C@H](C)NC(=O)[C@@H]1CSSC[C@H](NC(=O)[C@@H](N)CCCCN)C(=O)N[C@@H](CC(N)=O)C(=O)N[C@@H]([C@@H](C)O)C(=O)N[C@@H](C)C(=O)N[C@@H]([C@@H](C)O[C@H]2O[C@H](CO)[C@H](O)[C@H](O[C@@H]3O[C@H](CO)[C@H](O)[C@H](O)[C@H]3O)[C@H]2NC(C)=O)C(=O)N1)[C@@H](C)O)C(C)C)C(=O)N[C@@H](CC(C)C)C(=O)N[C@@H](CO)C(=O)N[C@@H](CO)C(=O)N[C@H](C(=O)N[C@@H](CC(N)=O)C(=O)N[C@H](C(=O)NCC(=O)N[C@@H](CO)C(=O)N[C@@H](CC(N)=O)C(=O)N[C@H](C(=O)N[C@@H](Cc1ccc(O)cc1)C(N)=O)[C@@H](C)O)C(C)C)[C@@H](C)O		PBS	1 h, pH 7.4	thermodynamic solubility	81 µg/mL (≈ 19 µM)

Some of these lines once more:
SMILES	test	test system	setting	measurement	result
CC1COC2=C1C(=O)C(=O)c1c2ccc2c1C(OC(=O)CNC(=O)C(N)CCC(=O)O)CCC2(C)C (mixture of isomers)		PBS	pH 4, 25 °C	thermodynamic solubility	2140 µg/mL
